Results gathered from unrelated publications.
Parts stem from different laboratories: compare values within a part only. Positions count from the first letter of the parent shown.
UniProt P08913, sequence (whole entry, looked up): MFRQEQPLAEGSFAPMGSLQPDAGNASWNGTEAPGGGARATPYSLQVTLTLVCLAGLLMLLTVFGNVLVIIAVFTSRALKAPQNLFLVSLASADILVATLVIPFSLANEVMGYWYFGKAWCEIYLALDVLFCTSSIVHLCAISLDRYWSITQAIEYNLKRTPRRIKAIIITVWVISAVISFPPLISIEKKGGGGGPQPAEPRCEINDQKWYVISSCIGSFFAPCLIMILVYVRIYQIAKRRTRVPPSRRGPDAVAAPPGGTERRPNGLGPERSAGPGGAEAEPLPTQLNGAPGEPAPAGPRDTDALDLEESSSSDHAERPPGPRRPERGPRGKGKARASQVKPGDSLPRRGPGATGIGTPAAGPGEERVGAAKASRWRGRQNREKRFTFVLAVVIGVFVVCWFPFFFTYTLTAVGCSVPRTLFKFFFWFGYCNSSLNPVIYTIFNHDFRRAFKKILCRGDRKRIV

Block 1 — method: RNA Bind-n-Seq; form: RNA; matrix: in vitro; concentration: 20 nM; notes: 6-mer, flanks averaged, single round; added: 150 mM LiCl; baseline: input library; direction: higher = stronger binding
Target: TAR DNA-binding protein 43, full length, His tag (TARDBP, Homo sapiens, UniProt Q13148, residues 1-414)
`AUAACU`: “6-mer enrichment (R)” 0.904.
For `ACUGAA`, “6-mer enrichment (R)” read 0.84.
For `GCAAGA`, “6-mer enrichment (R)” read 0.893.
`GCUCUA` — result for “6-mer enrichment (R)”: 0.846.
`UGGGAC`: “6-mer enrichment (R)” 1.08.
`UUACUG`: “6-mer enrichment (R)” 0.938.
`CAAACC`: “6-mer enrichment (R)” 0.836.
`AACAUG` — result for “6-mer enrichment (R)”: 0.86.

Block 2 — target: OGT, full length, His-tagged (human); method: phage display, sequencing; matrix: in vitro; concentration: 1 µg OGT; baseline: input library; direction: higher = stronger binding; starting sequence: peptide; NSEYMPQYQIIFAHQ
Notes: single substitutions, 15-mer displayed peptide, unchanged parent 16.7
`NSEYMPQYNIIFAHQ [Q9N]` gave a fold enrichment of 1.57 fold.
The fold enrichment of `NSRYMPQYQIIFAHQ [E3R]` is reported as 10.8 fold.
For `TSEYMPQYQIIFAHQ [N1T]`, the fold enrichment was 15.3 fold.
The fold enrichment of `NSEYMPQYQIIFAHM [Q15M]` is reported as 10.8 fold.
`NSEHMPQYQIIFAHQ [Y4H]` gave a fold enrichment of 2.32 fold.
`NSEYMPQYQIIFFHQ [A13F]` has a fold enrichment of 6.98 fold.
For `NSEYMPQYQIIFAPQ [H14P]`, the fold enrichment was 17.3 fold.
`NSEYRPQYQIIFAHQ [M5R]` has a fold enrichment of 9.3 fold.

Block 3 — method: competition protein-binding microarray; form: double-stranded DNA, one strand shown; matrix: in vitro; concentration: 2 µM; added: Pho4 competitor, 0.05 µM; direction: higher = stronger binding; constant ends, left off below: … GTCTTGATTCGCTTGACGCTGCTG
Target: Centromere-binding protein 1, full length, His-tagged (CBF1, Saccharomyces cerevisiae, UniProt P17106, residues 1-351)
UniProt P17106, sequence (whole entry, looked up): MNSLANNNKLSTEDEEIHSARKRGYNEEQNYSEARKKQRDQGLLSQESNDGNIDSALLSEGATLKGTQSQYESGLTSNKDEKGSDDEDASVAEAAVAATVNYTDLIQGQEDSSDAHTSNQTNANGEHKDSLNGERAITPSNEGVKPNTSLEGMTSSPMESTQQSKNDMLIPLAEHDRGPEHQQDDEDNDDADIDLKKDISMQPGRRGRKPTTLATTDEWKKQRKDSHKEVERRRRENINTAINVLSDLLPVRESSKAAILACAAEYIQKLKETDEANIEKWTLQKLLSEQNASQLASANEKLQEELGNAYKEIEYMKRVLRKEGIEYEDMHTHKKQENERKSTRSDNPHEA
Notes: whole 60-bp probe, lowest competitor level
With `CATGGGGCGGTAGGGTTCGTGATGGTTTTTCTGCCC` the fluorescence intensity was 99.7 a.u.
`GTCTTGTCTCATTGATCGGTGGGTGTCCCCACTTCA` gave a fluorescence intensity of 80.7 a.u.
The fluorescence intensity of `CGCTTGAAAAGGAATCATGTGCCTATTTTCCTCATT` is reported as 521 a.u.
For `TCGATGACAATTTTACACATGAAAAACGAACTATGT`, the fluorescence intensity was 97.2 a.u.
`GCTTGTTTTCTCCGTCACGGGTTTAGACCTTGGTGG` gave a fluorescence intensity of 527 a.u.
`TGCGCAACAACTTGTCACCAGACTTTATGTCTAGAA` has a fluorescence intensity of 90.6 a.u.
`ACAAGAACACCATCCCAGGTGATAGGAGTGCTCTTT` has a fluorescence intensity of 59.9 a.u.
For `GACTCTGAAAAGGGTACCGTGACTCGGAAAGAAGTT`, the fluorescence intensity was 410 a.u.

Further values, each from its own experiment
With `Cc1nc(C2CCN(C(=O)c3ccc(OC(F)(F)F)cc3N)CC2)c2ncc(N3CCN(C)CC3)cc2n1` the inhibition was -6.02% (Alpha-2A adrenergic receptor (ADRA2A, Homo sapiens, UniProt P08913); binding, radioligand binding; 10 µM).
